Measurements pooled from the literature.
Parts stem from different laboratories: compare values within a part only. Changes are numbered by the printed parent chain.

Series 1 — target: JUNB, bZIP domain (human); method: DHFR protein complementation; sample: yeast; reference: wild-type JUN-FOS pair; direction: higher = stronger binding; endpoint: binding fitness
Notes: single substitutions, most at no-binding floor
Starting sequence: JUN, bZIP domain (human); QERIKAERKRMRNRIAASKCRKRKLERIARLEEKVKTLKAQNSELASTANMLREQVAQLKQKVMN; partner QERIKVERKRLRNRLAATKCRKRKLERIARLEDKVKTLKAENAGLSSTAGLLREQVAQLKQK
Variant = T37N; value = -0.91 natural log
Variant = I28G; value = -1.35 natural log
Variant = Q41K; value = -1.22 natural log
Variant = K34A; value = -1.09 natural log
Variant = N42L; value = -1.47 natural log
Variant = A46P; value = -1.51 natural log
Variant = R53I; value = -1.45 natural log
Variant = V35P; value = -1.49 natural log
Variant = A29W; value = -1.3 natural log
Variant = L38T; value = -1.35 natural log
Variant = T48G; value = -1.45 natural log
Variant = R53T; value = -1.43 natural log
Variant = A46D; value = -1.49 natural log
Variant = S47N; value = -0.886 natural log
Variant = L52P; value = -1.49 natural log
Variant = R30A; value = -0.912 natural log
Variant = S47W; value = -1.3 natural log
Variant = E33D; value = -1.27 natural log
Variant = S47F; value = -1.13 natural log
Variant = L45T; value = -1.45 natural log
Variant = E54R; value = -1.32 natural log

Series 2 — method: RNA Bind-n-Seq; form: RNA; sample: in vitro; tested at: 100 nM; reference: input RNA pool; direction: higher = stronger binding; endpoint: bound/input enrichment
Target: RING finger protein unkempt homolog, zinc fingers 1-6, SBP tag (UNK, Homo sapiens, UniProt Q9C0B0, residues 30-357)
Chain of UniProt Q9C0B0 (30-357, looked up): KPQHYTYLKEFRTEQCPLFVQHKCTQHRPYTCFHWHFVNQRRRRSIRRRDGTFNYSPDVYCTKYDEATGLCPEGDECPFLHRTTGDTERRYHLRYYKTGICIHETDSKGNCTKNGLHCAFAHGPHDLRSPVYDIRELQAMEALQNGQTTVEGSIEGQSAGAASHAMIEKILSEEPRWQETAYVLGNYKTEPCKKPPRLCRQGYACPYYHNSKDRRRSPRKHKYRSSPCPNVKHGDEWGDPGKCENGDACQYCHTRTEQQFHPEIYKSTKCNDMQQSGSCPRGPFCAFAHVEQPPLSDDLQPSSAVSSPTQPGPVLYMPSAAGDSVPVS
Notes: RNA with constant flanks, vertebrate orthologous sites, ends assumed
Oligonucleotide = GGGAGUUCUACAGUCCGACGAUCAAGAUGGUGGUUGUACAUUAUUUCAUUUAGAAAAUAUAAAAAUUCAUUUUGUUUUGAACCUAGGUAUUAAACUGGAAUAGCUCUUAACAUCCCUGAGAAUGGGGUGGUUGUGCCCUGACCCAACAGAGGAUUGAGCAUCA; value = 1.25 ratio
Oligonucleotide = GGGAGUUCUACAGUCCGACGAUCAGCAGUUAGGAUGGGCCAUUCCUCUGCAUUUCCCAUGAGGAGAAAAGCCCAAAUCGAUGACACACGUUUCACACAUCUGAUGAUGAUCUUUUUGUUUUCUGCUUUUGCGUAUGCAUCAAACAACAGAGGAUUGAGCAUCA; value = 0.375 ratio
Oligonucleotide = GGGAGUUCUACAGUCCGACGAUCGUUUUUUUGUUUUGCACAUGACAGUGUGUGUAUGGAUCUGAGGAAGGAGGUGGGGUGCUGGUGCAGUUGGCCUCCAGUGCCCCCCACCCUCACCACCCCACCUGGUAUCUUUGCCAUGUUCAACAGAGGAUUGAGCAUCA; value = 0.272 ratio
Oligonucleotide = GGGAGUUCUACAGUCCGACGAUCUGUACCUCCUGAACUUCUAGCUUUCAAGUUGGGGCUGGUUUUUUUUUCUUUUCUUUUCUUUAGAAUUUUUCCCUGUUUCCCACCUUCUCUUCCCCUGUUCCCAAGAUCUGACUCAUGGAUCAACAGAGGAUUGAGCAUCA; value = 1.57 ratio
Oligonucleotide = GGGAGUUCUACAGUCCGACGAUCGAUUUGGACCUUGGAGCCAAACCAGGGAGCUAGCGAAAGUAAAGCAGACUUGUAAAAUUAUAGCCAUAUGCAGAUGCACAACAAUGGUACUACCACUAGAGCUGUGUUAAAGUAUUUAUACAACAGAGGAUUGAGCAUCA; value = 0.487 ratio
Oligonucleotide = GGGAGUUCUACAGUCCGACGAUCUCCCAGCACUUCGAUAAAAAGCGUGGACUGGUUGCUUGUAUUUUCCUUAUUCUUUUUAAUUAGUUUUAUUAUGUAUGCUACUAUUCGAACUGAGAGCAUUCGGUGGCUAAUUCCAGGACACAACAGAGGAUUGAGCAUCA; value = 1.87 ratio
Oligonucleotide = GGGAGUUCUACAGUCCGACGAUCAUCCUUUCGUACUAUCCCUGGCCACAGCCGAGGGCCCGAUGUUUCACUGAGGACCUGCAUUUAAGACAUUUUUUAAAUUGCUGUACAGGAGGAGAUGCAUCUAAAAUAGUAUCUCAACGCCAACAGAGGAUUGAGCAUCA; value = 0.409 ratio
Oligonucleotide = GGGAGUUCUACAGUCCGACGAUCUCCCGCACCUGCGGGGGCGUGACCGAGGCUGAAGCAUCCACCUGCGCUGUGAGGGGUCCACGGUAUUUCUUUUUUUGCUGCCUCAGGCCCCAGAGCCUUCAAGCAACAGCGGCAGUAGAUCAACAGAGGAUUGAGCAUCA; value = 0.151 ratio

Series 3 — method: RNAcompete; form: RNA; sample: in vitro; tested at: 20 nM; notes: 7-mer, probes averaged, single round; reference: mean of 7-mers; direction: higher = stronger binding; endpoint: 7-mer Z-score
Target: PABPC1L2, full length, GST fusion (mouse, UniProt A0ABA7IW68)
Construct (chain): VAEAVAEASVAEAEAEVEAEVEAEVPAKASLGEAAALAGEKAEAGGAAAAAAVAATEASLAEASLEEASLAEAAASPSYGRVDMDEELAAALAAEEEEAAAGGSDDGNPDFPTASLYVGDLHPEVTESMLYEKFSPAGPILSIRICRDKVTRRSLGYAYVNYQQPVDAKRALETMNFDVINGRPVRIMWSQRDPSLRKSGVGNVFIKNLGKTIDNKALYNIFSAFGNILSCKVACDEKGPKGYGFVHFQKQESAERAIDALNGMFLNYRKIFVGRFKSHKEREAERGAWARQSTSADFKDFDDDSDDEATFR
Oligonucleotide = ACUUUGA; value = -0.0482
Oligonucleotide = UGACUCC; value = -0.0772
Oligonucleotide = AUGCCCC; value = -0.142
Oligonucleotide = GGCUAGC; value = -0.0518
Oligonucleotide = ACGGACC; value = 0.0189
Oligonucleotide = AUGAGUG; value = -0.0989
Oligonucleotide = UCCGGGC; value = 0.0315
Oligonucleotide = AGUUAAA; value = 0.501
Oligonucleotide = UUAGCGA; value = 0.0261
Oligonucleotide = CUCCAGA; value = -0.229
Oligonucleotide = UUCGGCU; value = -0.409
Oligonucleotide = GGUCAUC; value = -0.0718
Oligonucleotide = UAGGAUG; value = 0.0587
Oligonucleotide = CGGCCGU; value = -0.266
Oligonucleotide = CGGGCUC; value = 0.106
Oligonucleotide = GUAGUCU; value = -0.255
Oligonucleotide = GCGGCGA; value = 0.401

Series 4 — method: DHFR PCA, deep sequencing; sample: yeast; together with: (+)-ABA 0.39 µM; reference: wild-type fitted maximum; direction: higher = stronger binding; endpoint: relative binding score
Target: ABI1, truncated, D143A, DHFR fusion (Arabidopsis thaliana)
Notes: methotrexate growth selection, single substitutions
Starting sequence: PYL1, truncated, DHFR fusion (Arabidopsis thaliana); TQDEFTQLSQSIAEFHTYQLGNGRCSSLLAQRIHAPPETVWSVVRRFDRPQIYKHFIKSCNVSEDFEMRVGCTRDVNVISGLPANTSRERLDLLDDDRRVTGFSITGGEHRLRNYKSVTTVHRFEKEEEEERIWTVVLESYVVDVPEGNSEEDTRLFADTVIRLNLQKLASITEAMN
Variant = T119G; value = -11%
Variant = V76H; value = -8.89%
Variant = V43H; value = -4.49%
Variant = R90D; value = -17.2%
Variant = S42G; value = 35.9%
Variant = S59A; value = 27.1%
Variant = E152C; value = 6.28%
Variant = E14Y; value = -2.38%
Variant = H110W; value = 84%
Variant = R46S; value = 9.94%
Variant = V145T; value = -14.6%
Variant = F47K; value = -10.9%
Variant = T160N; value = 3.58%
Variant = T106N; value = -3.02%
Variant = T173K; value = -37.1%
Variant = R155C; value = 5.66%
Variant = I79R; value = -2.95%
Variant = V142P; value = -4.57%
Variant = E4H; value = 24%
Variant = S11E; value = 62.7%
Variant = S117Q; value = -0.316%
Variant = Q19Y; value = 11.4%
Variant = R69Y; value = 11.6%
Variant = F15L; value = -1.46%
Variant = I105Q; value = -19.3%

Series 5 — target: CCNE1, cyclin fold, Cln2 fusion (human); method: yeast growth competition, sequencing; sample: yeast; notes: strong parent motif; reference: not given; direction: higher = stronger binding; endpoint: normalised enrichment score
Starting sequence: SCAPER docking peptide (human); SNARRSLNFGGST
Variant = G10Q; value = 0.467
Variant = G10H; value = 0.651
Variant = S1L; value = 1.43
Variant = R4E; value = -0.413
Variant = N8T; value = 0.873
Variant = A3T; value = 0.685
Variant = T13G; value = 1.22
Variant = G11E; value = 1.12
Variant = N8W; value = 1.19
Variant = T13L; value = 1.89
Variant = F9V; value = 0.102
Variant = S1P; value = 0.774
Variant = L7N; value = 0.0468
Variant = S6M; value = 3.08
Variant = L7R; value = 0.0313
Variant = T13Y; value = 0.655
Variant = N8P; value = 0.0425
Variant = F9M; value = 1.04
Variant = L7F; value = 0.556
Variant = S1R; value = 0.685
Variant = S1F; value = 1.84
Variant = N2S; value = 1.21
Variant = S1N; value = 1.24
Variant = S1Q; value = 0.495
Variant = S1G; value = 0.946

For quick reference, copied from above (series 4):
Variant = S59A; value = 27.1%
Variant = E152C; value = 6.28%
Variant = E14Y; value = -2.38%
Variant = H110W; value = 84%
Variant = R46S; value = 9.94%
Variant = V145T; value = -14.6%
Variant = F47K; value = -10.9%
Variant = T160N; value = 3.58%
Variant = T106N; value = -3.02%
Variant = T173K; value = -37.1%
